Published values from different studies.
A part holds a random share of what one study measured.

Study 1
Target: Sal-like protein 4, full length isoform A (SALL4, Homo sapiens, UniProt Q9UJQ4, residues 1-1053)
UniProt Q9UJQ4, sequence (whole entry, looked up): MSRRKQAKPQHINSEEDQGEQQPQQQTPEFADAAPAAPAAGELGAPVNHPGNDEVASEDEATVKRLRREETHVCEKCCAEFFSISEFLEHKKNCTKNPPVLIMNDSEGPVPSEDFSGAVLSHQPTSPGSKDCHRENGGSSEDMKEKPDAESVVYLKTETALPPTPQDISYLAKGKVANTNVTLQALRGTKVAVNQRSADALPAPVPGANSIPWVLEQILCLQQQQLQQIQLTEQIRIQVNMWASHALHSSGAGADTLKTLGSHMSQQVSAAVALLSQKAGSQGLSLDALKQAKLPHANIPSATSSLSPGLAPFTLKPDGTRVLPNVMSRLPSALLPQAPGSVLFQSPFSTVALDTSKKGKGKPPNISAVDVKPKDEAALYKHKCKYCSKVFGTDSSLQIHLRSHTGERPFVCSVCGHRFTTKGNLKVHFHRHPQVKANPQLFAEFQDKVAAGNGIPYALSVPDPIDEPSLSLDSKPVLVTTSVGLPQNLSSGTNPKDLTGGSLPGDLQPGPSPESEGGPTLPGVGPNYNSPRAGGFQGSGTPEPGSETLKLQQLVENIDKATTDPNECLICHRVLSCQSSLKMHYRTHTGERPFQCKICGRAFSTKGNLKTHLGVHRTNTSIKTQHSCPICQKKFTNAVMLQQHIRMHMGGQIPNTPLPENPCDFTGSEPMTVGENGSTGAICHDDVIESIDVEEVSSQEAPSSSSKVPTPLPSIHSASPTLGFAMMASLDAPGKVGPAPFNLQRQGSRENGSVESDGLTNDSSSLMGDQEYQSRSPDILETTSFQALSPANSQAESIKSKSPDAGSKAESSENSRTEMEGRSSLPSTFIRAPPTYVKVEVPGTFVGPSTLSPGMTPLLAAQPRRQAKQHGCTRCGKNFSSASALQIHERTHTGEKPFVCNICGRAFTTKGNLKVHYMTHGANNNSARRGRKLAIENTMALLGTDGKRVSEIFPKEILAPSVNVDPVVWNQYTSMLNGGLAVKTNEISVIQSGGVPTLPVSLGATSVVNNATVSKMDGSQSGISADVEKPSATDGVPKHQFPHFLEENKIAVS
Method: universal PBM
Molecule type: double-stranded DNA, one strand shown
Medium: in vitro
Tested at: 600 nM
Notes: 8-mer, flanks averaged, mean of replicates
Reading: higher = stronger binding
Quantity: E-score
Sequence = CATGATGG; value = -0.0808
Sequence = CGAGTTGA; value = -0.109
Sequence = TGTTAGAA; value = 0.203
Sequence = GGCGGAGA; value = -0.164

Study 2
Target: RING finger protein unkempt homolog, zinc fingers 1-6, GST-SBP tag (UNK, Homo sapiens, UniProt Q9C0B0, residues 30-357)
UniProt Q9C0B0, sequence (30-357, looked up): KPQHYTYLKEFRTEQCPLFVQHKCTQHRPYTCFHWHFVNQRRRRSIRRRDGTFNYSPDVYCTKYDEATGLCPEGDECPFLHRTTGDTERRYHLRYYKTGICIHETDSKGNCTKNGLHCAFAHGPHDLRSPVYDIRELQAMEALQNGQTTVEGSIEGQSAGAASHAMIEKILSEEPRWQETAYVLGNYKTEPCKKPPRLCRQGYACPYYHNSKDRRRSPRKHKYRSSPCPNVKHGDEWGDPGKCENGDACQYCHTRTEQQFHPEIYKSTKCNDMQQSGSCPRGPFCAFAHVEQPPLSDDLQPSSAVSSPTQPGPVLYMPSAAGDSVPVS
Method: RNA Bind-n-Seq
Molecule type: RNA
Medium: in vitro
Tested at: not given
Notes: RNA with constant flanks, human-mouse chimeric sites, ends assumed
Baseline: input RNA pool
Reading: higher = stronger binding
Quantity: bound/input enrichment
Sequence = GGGAGUUCUACAGUCCGACGAUCAACAGAUUGUCUUUAAGCAUUCCAAGCGAGAAUGCUGGGGUGAUCAUUGUUGCCCAUGUGCCUUCUGUAAUAGAUGGAAUGCUGUUCCAUGUUACAUUGAUGUUCUUCUCCAGAAUUGUUCAACAGAGGAUUGAGCAUCA; value = 0.14 ratio
Sequence = GGGAGUUCUACAGUCCGACGAUCAUGCAGUAUGAGACCAACAGCAUGGACUUCAAAGUUGGGGCAGAUGGGACAGUCUUCGCCACCCGGGAGCUGCAGGUCCCCUCCGAGCAGGUGGCGUUCACGGUGACUGCAUGGGACAGCCAACAGAGGAUUGAGCAUCA; value = 0.222 ratio
Sequence = GGGAGUUCUACAGUCCGACGAUCCUGUGACCACAAGAUCCUACCUGAGUGGCAGCUGAAGCACUUUUCUUCUCCUUGCCUGAACCCCCCCCCACUGCCCCCCCAUCCCCCAGUGUCGGCUAUUCUCUGGUCUCUGCACGGUUCCAACAGAGGAUUGAGCAUCA; value = 0.642 ratio

Study 3
Target: Histone acetyltransferase KAT6A, winged helix 1, GST fusion (KAT6A, Homo sapiens, UniProt Q92794, residues 1-85)
Method: protein binding microarray
Molecule type: double-stranded DNA, one strand shown
Medium: in vitro
Tested at: not given
Notes: 8-mer, flanks averaged, mean of 2 arrays, mostly near background
Baseline: not given
Reading: higher = stronger binding
Quantity: E-score
Target sequence (chain): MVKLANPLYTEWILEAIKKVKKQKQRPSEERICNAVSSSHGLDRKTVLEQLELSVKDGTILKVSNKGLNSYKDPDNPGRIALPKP
Sequence = CCACTGAA; value = -0.0275
Sequence = GCAGCCAC; value = -0.0496
Sequence = GGTCTGTA; value = -0.0113
Sequence = AGTAAGAC; value = 0.00365

Mixed results
Substance = PhoQ, residues 284 288 289 292 302 303 AGHLVA; target = PhoP, residues 12 14 15 18 19 LHSVQ (Escherichia coli, UniProt P23836); test = Sort-seq, item: YFP reporter; test system = E. coli; setting = PhoQ-PhoP variant library, together with: 10 µM Mg2+; scale = baseline: high Mg2+ state, higher = stronger signaling; quantity = fold induction; value = 2.38
